Measured values from different studies.
Protocols differ between the studies behind these lines. Several values in a cell are separate wells, animals, samples, runs or records. ± marks the error that the study gave.

`Cn1c(=O)c(-c2ccccc2Cl)cc2cnc(Nc3cccc(S(C)(=O)=O)c3)nc21` has an EC50 of 42 ± 29 nM (Cryptosporidium parvum; parasite growth, immunofluorescence count; HCT-8, IOWA; 48 h).
`CC1=CC(Oc2c(F)cc3c(C)cc(=O)oc3c2F)OC1=O` (racemic) has an EC50 of 46 nM (Phelipanche ramosa; seed germination, stimulant; seeds).
`O=C(Nc1ccc([N+](=O)[O-])cc1O)Nc1ccccc1Br` gave an EC50 of 7720 nM (Cryptosporidium parvum; parasite growth, qRT-PCR; HCT-8; 44 h).
With `Cc1cc(C(=O)N(C)CC2CCCN(CCc3ccc(F)cc3)C2)c(C)o1` (stereo not shown) the translation activity was 121% and 102% (Trypanosoma cruzi; reporter mRNA translation, inhibitor, item: Renilla luciferase mRNA; cell-free extract; concentration not given, test 2; baseline: positive over negative control).
`CN1CCCN(c2cnc3c(cc(C(=O)NCc4ccc(Cl)cc4)c(=O)n3CC(=O)N3CC(C)(F)C3)n2)C1=O` gave an EC50 of 1890 nM (human cytomegalovirus; viral replication, GFP reporter; MRC-5, AD169-GFP).
For `NC(=O)c1cccc(NC(=O)c2cc(-c3ccc(Br)cc3)n(-c3ccccc3)n2)c1`, the EC50 was 8400 nM (dengue virus 2; viral replication, immunofluorescence; Vero, New Guinea C).
`CC1=CC(OC=C2C(=O)OC3c4ccccc4CC23)OC1=O` (racemic) gave an EC50 of 0.66 nM (Arabidopsis thaliana; seed germination, stimulant; htl-3 expressing ShHTL7; 34 °C, continuous light).
For `Cc1ccc2c(c1)nc(NC(=O)c1cccc(C(F)(F)F)c1)n2[C@H]1CC[C@H](N)CC1`, the EC50 was 490 nM and 500 nM and 350 nM and 190 nM (Trypanosoma brucei gambiense; growth inhibition, CellTiter-Glo; STIB930; 48 h).
With `CCc1c(C(=O)Nc2cc(S(=O)(=O)N(CC)CC)ccc2O)[nH]c(C)c1C(C)=O` the EC50 was 2750 nM (Cryptosporidium parvum; parasite growth, qRT-PCR; HCT-8; 44 h).
For `Cc1cc(C(=O)Nc2nc3cccc(C)c3n2[C@H]2CCCCN(C(=O)/C=C/CN(C)C)C2)ccn1`, the EC50 was 58 nM (Trypanosoma brucei gambiense; growth inhibition, CellTiter-Glo; STIB930; 48 h, mean value).
The EC50 of `CC(=O)N(C)CCN1CCN(c2cnc3c(cc(C(=O)NCc4ccc(Cl)cc4)c(=O)n3CC(=O)N3CC(C)(F)C3)n2)C1=O` is reported as 1750 nM (human cytomegalovirus; viral replication, GFP reporter; MRC-5, AD169-GFP).
With `CC1=C(C)[C@@H](Oc2c(F)cc3c(C)cc(=O)oc3c2F)OC1=O` the EC50 was 7 nM (Phelipanche ramosa; seed germination, stimulant; seeds).
`CCC(C)n1ncn(-c2ccc(N3CCN(c4ccc(OCC5COC(Cn6cncn6)(c6ccc(Cl)cc6Cl)O5)cc4)CC3)cc2)c1=O` (mixture of isomers) gave a translation activity of 95.3% and 140% (Trypanosoma cruzi; reporter mRNA translation, inhibitor, item: Renilla luciferase mRNA; cell-free extract; concentration not given; baseline: positive over negative control).

A few entries again:
For `Cc1ccc2c(c1)nc(NC(=O)c1cccc(C(F)(F)F)c1)n2[C@H]1CC[C@H](N)CC1`, the EC50 was 490 nM and 500 nM and 350 nM and 190 nM (Trypanosoma brucei gambiense; growth inhibition, CellTiter-Glo; STIB930; 48 h).
`O=C(Nc1ccc([N+](=O)[O-])cc1O)Nc1ccccc1Br` gave an EC50 of 7720 nM (Cryptosporidium parvum; parasite growth, qRT-PCR; HCT-8; 44 h).
